Results pooled from the literature.
Numbered parts are unrelated; each lists some results of a single study.
Chain of UniProt P07333 (whole entry, looked up): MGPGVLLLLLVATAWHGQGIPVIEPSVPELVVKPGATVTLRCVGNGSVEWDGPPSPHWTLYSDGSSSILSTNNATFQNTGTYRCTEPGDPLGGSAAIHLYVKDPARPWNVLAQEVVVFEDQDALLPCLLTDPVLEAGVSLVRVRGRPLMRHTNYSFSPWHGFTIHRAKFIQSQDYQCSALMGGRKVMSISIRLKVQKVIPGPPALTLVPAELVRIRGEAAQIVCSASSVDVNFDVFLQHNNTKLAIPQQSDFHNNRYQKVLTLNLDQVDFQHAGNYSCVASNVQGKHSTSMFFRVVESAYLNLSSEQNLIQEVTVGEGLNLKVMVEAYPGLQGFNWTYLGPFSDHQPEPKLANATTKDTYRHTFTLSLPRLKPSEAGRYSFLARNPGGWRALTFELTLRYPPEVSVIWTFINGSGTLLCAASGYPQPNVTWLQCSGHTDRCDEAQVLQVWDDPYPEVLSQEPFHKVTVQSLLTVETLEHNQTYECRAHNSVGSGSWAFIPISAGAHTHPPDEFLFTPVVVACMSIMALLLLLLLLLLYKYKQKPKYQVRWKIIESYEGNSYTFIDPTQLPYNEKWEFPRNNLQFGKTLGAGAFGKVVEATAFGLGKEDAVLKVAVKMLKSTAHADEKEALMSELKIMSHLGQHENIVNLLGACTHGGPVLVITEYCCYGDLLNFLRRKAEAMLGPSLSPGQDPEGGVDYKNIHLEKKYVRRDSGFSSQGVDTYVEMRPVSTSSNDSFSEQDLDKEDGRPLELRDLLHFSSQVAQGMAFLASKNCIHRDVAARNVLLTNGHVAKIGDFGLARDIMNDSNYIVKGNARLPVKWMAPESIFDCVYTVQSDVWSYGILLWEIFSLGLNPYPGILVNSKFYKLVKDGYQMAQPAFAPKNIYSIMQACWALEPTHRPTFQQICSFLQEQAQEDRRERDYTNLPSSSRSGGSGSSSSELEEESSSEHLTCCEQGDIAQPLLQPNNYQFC
Chain of UniProt P11309 (whole entry, looked up): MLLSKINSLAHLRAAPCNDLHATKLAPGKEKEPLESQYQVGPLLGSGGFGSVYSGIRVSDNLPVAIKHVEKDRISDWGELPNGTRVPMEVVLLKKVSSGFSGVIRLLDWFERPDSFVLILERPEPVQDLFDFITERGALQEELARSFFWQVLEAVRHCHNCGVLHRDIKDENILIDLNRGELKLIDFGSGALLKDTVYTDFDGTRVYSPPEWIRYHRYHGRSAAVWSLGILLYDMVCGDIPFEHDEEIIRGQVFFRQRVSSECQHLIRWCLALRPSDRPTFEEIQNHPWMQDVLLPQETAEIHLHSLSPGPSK
Chain of UniProt P15056 (whole entry, unmodified, looked up): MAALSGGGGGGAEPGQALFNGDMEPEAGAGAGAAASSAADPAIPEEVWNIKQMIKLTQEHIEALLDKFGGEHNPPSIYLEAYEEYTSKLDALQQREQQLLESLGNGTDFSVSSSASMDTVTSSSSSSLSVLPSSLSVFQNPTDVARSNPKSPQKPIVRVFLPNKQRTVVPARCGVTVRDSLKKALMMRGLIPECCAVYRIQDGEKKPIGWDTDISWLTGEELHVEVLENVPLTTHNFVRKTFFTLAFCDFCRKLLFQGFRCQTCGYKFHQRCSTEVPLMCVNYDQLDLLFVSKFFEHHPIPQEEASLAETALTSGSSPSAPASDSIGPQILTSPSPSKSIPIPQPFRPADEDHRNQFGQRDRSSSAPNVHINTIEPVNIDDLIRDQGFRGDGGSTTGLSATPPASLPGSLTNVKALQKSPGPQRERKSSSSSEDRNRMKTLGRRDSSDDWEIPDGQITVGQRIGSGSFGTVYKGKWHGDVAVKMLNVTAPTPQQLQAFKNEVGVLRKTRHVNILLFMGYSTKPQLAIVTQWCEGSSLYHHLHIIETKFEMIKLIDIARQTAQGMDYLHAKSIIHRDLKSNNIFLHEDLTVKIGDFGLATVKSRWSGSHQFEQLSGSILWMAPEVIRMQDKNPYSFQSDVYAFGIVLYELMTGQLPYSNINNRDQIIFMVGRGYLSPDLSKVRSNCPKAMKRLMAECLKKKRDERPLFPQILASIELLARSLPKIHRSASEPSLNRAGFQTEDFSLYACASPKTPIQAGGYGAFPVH
Chain of UniProt O15197 (whole entry, looked up): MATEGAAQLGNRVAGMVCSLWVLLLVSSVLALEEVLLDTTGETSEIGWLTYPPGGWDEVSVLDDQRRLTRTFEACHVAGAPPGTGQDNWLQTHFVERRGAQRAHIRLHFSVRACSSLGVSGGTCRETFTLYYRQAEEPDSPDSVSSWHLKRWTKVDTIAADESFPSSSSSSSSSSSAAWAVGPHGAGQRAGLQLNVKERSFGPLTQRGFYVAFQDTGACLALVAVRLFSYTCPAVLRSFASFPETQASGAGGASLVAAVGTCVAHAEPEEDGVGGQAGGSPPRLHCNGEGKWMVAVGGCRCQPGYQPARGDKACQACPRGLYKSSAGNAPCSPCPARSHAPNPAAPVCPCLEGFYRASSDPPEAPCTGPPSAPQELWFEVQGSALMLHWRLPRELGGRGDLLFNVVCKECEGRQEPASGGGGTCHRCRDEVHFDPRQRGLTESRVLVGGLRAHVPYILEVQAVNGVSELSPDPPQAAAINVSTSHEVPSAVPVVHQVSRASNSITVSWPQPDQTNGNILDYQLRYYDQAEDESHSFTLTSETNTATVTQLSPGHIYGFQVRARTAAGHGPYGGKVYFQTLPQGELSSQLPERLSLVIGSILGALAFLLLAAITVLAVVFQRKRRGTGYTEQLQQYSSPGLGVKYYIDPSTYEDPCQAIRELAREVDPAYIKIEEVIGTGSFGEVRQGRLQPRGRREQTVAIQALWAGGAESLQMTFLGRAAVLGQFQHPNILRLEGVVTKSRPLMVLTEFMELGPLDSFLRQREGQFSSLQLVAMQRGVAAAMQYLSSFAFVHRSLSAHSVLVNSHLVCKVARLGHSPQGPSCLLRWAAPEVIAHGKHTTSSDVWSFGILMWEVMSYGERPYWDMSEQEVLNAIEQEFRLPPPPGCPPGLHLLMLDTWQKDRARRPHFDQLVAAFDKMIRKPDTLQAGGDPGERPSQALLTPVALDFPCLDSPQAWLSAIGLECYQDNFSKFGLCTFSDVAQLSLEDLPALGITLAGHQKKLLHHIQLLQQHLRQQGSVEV
Chain of UniProt P21127 (whole entry, looked up): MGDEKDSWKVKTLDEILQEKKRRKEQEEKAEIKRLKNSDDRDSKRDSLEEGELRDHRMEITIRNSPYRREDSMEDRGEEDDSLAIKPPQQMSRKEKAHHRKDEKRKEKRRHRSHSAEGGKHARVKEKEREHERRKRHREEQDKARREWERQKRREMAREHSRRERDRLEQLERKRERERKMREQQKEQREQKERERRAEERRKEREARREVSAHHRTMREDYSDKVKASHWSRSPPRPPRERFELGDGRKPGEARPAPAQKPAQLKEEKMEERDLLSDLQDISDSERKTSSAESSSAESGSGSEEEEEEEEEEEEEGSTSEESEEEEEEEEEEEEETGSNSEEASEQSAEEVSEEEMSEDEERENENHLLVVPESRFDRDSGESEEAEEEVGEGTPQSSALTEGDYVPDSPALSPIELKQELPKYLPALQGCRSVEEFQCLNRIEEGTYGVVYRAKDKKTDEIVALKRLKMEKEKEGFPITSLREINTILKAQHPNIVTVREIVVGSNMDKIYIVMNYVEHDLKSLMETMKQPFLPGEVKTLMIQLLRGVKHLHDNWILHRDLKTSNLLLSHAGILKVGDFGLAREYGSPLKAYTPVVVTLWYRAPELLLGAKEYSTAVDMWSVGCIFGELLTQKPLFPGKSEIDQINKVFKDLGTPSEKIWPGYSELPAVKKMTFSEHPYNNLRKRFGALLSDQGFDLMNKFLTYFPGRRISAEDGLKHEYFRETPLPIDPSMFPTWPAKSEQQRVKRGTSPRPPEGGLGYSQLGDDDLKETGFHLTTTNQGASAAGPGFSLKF
Chain of UniProt P11802 (whole entry, looked up): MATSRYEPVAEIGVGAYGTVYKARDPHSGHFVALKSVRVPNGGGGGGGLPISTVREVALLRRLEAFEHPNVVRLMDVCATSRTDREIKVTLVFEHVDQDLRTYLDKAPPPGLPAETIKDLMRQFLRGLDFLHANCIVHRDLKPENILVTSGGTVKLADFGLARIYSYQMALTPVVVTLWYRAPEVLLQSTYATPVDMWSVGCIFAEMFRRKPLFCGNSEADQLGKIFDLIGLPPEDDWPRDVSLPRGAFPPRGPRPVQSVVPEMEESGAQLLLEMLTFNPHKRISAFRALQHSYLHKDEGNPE
Chain of UniProt Q13882 (whole entry, looked up): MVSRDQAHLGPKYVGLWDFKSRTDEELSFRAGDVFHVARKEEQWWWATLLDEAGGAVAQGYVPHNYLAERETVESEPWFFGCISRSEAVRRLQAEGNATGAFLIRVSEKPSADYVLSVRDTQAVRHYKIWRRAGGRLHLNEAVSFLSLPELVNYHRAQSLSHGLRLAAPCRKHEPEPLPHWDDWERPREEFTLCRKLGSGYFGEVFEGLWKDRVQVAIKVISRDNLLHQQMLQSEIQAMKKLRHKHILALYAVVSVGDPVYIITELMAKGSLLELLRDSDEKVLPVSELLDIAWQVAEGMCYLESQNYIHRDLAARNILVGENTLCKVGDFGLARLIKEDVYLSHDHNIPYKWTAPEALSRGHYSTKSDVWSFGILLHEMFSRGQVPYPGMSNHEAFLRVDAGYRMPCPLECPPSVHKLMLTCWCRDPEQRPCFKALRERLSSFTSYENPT

Block 1
Cell line: mouse MPNST tumor cells
Method: high-content immunofluorescence imaging
Measured: nuclear SOX9
Concentration: 10 µM
Time: 12 h
Setting: mean of 2 replicates
Relative to: DMSO control
Reading: higher = more nuclear SOX9
| SMILES | nuclear SOX9 intensity |
| --- | --- |
| CS(=O)(=O)Nc1ccc([N+](=O)[O-])cc1OC1CCCCC1 | 92.3 % of DMSO |
| CCCc1nc2nc(C)c(NS(=O)(=O)c3ccc(C4CCCCC4)cc3)c(=O)n2[nH]1 | 97.9 % of DMSO |
| CNCc1ccc(-c2[nH]c3cc(F)cc4c3c2CCNC4=O)cc1 | 183 % of DMSO |
| Clc1cc2c(NC3CCCC3)nnc(-c3ccncc3)c2cc1Cl | 119 % of DMSO |
| O=C(Nc1cc(C(F)(F)F)cc(C(F)(F)F)c1)c1cnc(Cl)nc1C(F)(F)F | 106 % of DMSO |
| O=C(O)CCCC[C@@H]1SC[C@@H]2NC(=O)N[C@@H]21 | 97.5 % of DMSO |
| CCc1cncnc1N1CCN(Cc2nc3ccc(C(F)(F)F)cc3[nH]2)CC1 | 84.4 % of DMSO |
| CC1(C)CCC(C)(C)c2cc(C#Cc3ccc(C(=O)O)cc3)ccc21 | 118 % of DMSO |

Block 2
Compound: NS(=O)(=O)c1cc(NC(=O)Cc2ccccc2)ccc1Oc1cccc(Cl)c1
Effect on: cell-free assay
Method: competition with immobilised ligand
Concentration: 1 µM
| target | remaining binding |
| --- | --- |
| CDK4 (Homo sapiens, UniProt P11802) | 88% |
| CDK11B (Homo sapiens, UniProt P21127) | 71% |
| MAPK4 (Homo sapiens, UniProt P31152) | 91% |
| EPHB6 (Homo sapiens, UniProt O15197) | 92% |
| CSF1R (Homo sapiens, UniProt P07333) | 87% |
| PIM1 (Homo sapiens, UniProt P11309) | 89% |
| BRAF (Homo sapiens, UniProt P15056, V600E) | 89% |
| PTK6 (Homo sapiens, UniProt Q13882) | 96% |

Block 3
Cell line: HaCaT
Concentration: 100 µM
Time: 18 h
| Compound | viability [%] |
| --- | --- |
| COc1ccc([C@@H]2CC(=O)c3c(O)cc(O)cc3O2)cc1O | 92.5 |
| C#C[C@]1(O)CC[C@H]2[C@@H]3CCC4=C(CCC(=O)C4)[C@H]3CC[C@@]21C | 100 |
| COc1cc2c(N3CCN(C(=O)Nc4ccc(OC(C)C)cc4)CC3)ncnc2cc1OCCCN1CCCCC1 | 28.8 |
| Cn1c([N+](=O)[O-])cnc1COC(N)=O | 120 |
| COc1ccc(CN=c2[nH]c(N3CCC[C@H]3CO)ncc2C(=O)NCc2ncccn2)cc1Cl | 65.3 |
| C[C@]12CC[C@@H]3c4ccc(O)cc4CC[C@H]3[C@@H]1C[C@@H](O)[C@@H]2O | 92 |
| CO/N=C(\C(=O)N[C@@H]1C(=O)N2C(C(=O)OCOC(=O)C(C)(C)C)=C(/C=C\c3scnc3C)CS[C@H]12)c1csc(N)n1 | 91.4 |
| CC(C)=CCC/C(C)=C/CC/C(C)=C/CC/C(C)=C/CC1=C(C)C(=O)c2ccccc2C1=O | 68.8 |

Further values, each from its own experiment
| Compound | target | test | conditions | scale | measurement | result |
| --- | --- | --- | --- | --- | --- | --- |
| N/C(=N\[N+](=O)[O-])N/N=C\c1ccc(-c2cccc([N+](=O)[O-])c2)o1 | Serine/threonine-protein kinase TBK1 (TBK1, Homo sapiens, UniProt Q9UHD2) | enzyme activity, inhibitor | 0.5 µM | relative to: control | remaining activity | 104% |

Excerpt of the above (block 2):
| target | remaining binding |
| --- | --- |
| BRAF (Homo sapiens, UniProt P15056, V600E) | 89% |
| PTK6 (Homo sapiens, UniProt Q13882) | 96% |
| MAPK4 (Homo sapiens, UniProt P31152) | 91% |
| CDK4 (Homo sapiens, UniProt P11802) | 88% |
